# Measurements gathered from unrelated publications.
# Lines come from different studies, so protocols differ. ± marks the error that the study gave. Non-standard residues stand in square brackets, D forms with d. No end group written: not given here. The star is where a group is joined.
# Aequorin-1 C152S/C159S/C187S: Aequorin-1 (Aequorea victoria, UniProt P07164, C152S/C159S/C187S)
# UniProt P07164, sequence (whole entry, unmodified, looked up): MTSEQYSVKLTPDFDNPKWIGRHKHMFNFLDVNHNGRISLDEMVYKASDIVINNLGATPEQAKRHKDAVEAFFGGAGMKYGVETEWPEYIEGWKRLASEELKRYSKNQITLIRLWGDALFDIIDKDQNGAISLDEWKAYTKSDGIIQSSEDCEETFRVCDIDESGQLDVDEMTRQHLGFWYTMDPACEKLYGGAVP
# CNR2: Cannabinoid receptor 2 (CNR2, Homo sapiens, UniProt P34972)
# UniProt P34972, sequence (whole entry, looked up): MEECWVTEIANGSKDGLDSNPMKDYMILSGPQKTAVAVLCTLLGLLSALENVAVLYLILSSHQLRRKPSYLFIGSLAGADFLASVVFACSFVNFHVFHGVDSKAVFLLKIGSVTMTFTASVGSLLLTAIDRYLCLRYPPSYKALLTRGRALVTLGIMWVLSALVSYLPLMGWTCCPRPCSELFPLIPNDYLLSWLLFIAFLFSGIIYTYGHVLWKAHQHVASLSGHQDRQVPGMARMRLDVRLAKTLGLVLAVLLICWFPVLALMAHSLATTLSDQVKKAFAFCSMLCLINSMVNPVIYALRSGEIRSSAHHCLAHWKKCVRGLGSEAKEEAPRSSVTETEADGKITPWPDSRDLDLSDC
# OPRM1: Mu-type opioid receptor (OPRM1, Homo sapiens, UniProt P35372)
# UniProt P35372, sequence (whole entry, looked up): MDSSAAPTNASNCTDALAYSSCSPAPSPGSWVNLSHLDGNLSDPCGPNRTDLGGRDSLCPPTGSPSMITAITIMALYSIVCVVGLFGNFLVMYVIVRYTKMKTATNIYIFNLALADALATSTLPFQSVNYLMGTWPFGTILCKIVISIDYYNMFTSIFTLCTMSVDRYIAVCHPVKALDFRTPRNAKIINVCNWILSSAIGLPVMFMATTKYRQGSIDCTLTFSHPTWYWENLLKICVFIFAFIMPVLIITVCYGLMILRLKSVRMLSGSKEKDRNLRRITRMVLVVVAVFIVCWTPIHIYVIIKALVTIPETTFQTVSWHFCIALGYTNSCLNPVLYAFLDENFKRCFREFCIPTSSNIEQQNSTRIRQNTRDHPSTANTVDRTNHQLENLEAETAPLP
# ESR1: Estrogen receptor (ESR1, Homo sapiens, UniProt P03372)
# UniProt P03372, sequence (whole entry, looked up): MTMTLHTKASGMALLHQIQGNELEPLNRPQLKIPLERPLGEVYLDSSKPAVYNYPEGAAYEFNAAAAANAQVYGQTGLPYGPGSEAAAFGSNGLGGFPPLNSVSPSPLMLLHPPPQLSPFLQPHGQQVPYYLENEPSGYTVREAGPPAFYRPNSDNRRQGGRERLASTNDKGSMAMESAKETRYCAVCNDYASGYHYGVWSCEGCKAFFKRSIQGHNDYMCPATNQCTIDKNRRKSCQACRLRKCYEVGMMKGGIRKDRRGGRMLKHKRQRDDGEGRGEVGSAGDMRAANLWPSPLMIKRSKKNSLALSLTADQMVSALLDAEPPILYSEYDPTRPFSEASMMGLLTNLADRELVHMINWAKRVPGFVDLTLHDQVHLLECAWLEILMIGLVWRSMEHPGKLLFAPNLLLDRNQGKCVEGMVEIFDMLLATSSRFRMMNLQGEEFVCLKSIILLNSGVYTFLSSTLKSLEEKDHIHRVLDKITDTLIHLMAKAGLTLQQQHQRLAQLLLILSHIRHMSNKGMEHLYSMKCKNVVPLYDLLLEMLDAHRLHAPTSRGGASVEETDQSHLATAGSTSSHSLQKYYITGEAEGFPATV
# Kelch domain-containing protein 2: Kelch domain-containing protein 2 (UniProt Q9Y2U9)
# UniProt Q9Y2U9, sequence (whole entry, looked up): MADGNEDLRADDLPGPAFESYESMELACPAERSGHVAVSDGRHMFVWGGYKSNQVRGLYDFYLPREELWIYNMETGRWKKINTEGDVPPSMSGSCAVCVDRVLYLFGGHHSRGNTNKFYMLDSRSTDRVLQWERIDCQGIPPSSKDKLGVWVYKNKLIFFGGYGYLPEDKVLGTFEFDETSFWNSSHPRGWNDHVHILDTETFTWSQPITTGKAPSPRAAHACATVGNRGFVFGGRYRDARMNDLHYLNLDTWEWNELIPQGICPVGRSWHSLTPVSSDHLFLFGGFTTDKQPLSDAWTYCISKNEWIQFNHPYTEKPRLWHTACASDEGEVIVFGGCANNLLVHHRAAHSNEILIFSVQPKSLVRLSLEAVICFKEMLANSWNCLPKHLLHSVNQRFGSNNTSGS
# ESR2: Estrogen receptor beta (ESR2, Homo sapiens, UniProt Q92731)
# UniProt Q92731, sequence (whole entry, looked up): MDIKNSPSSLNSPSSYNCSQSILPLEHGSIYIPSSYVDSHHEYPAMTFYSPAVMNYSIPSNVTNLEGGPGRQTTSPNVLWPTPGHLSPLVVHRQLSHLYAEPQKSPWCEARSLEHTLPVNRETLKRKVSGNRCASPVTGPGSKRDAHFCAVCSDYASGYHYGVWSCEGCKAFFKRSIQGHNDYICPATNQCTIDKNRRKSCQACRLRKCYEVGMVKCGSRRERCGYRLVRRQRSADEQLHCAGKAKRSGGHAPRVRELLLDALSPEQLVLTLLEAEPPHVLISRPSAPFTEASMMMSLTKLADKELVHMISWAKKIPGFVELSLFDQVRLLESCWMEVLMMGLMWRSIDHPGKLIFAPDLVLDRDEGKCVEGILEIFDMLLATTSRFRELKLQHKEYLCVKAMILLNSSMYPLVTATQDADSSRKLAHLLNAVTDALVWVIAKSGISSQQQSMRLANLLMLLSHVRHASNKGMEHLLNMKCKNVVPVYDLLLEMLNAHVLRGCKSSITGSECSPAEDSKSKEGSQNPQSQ
# UniProt P00330, sequence (whole entry, unmodified, looked up): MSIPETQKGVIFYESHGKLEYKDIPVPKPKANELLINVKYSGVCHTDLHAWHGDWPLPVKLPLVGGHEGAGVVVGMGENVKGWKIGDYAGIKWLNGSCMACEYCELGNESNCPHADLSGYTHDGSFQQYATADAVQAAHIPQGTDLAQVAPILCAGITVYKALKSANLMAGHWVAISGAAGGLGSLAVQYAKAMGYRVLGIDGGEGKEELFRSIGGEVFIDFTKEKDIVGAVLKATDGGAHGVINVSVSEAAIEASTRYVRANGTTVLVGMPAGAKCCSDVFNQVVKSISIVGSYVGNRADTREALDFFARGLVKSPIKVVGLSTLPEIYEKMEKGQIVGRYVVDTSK
# UniProt Q6B856, sequence (whole entry, looked up): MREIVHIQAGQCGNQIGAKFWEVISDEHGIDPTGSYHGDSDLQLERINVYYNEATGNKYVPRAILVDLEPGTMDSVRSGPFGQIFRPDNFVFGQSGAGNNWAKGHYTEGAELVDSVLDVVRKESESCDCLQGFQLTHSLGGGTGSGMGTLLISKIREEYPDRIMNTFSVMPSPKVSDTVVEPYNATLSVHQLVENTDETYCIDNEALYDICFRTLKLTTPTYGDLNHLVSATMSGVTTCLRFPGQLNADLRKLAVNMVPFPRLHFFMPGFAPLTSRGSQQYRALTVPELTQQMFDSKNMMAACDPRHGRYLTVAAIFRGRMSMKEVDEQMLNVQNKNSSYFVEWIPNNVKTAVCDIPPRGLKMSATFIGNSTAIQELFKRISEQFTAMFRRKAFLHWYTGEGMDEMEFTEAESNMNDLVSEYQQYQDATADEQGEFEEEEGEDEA
# UniProt O95476, sequence (whole entry, looked up): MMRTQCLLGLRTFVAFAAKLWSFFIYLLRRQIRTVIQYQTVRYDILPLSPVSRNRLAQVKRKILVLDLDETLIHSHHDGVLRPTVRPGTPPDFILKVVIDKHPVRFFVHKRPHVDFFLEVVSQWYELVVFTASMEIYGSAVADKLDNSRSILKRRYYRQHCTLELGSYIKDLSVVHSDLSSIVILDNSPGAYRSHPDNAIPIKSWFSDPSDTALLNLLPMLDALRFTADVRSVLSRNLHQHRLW
# UniProt Q16690, sequence (whole entry, looked up): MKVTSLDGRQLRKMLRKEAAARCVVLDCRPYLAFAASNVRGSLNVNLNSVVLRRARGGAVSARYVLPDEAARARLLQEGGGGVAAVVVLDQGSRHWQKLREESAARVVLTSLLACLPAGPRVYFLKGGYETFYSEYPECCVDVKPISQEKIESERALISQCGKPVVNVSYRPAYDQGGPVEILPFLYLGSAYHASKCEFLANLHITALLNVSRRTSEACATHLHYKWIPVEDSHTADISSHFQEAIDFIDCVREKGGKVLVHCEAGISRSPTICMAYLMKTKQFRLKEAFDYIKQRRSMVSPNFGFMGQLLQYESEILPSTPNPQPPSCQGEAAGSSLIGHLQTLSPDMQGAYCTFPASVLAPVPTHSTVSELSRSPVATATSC
# UniProt P25084, sequence (whole entry, looked up): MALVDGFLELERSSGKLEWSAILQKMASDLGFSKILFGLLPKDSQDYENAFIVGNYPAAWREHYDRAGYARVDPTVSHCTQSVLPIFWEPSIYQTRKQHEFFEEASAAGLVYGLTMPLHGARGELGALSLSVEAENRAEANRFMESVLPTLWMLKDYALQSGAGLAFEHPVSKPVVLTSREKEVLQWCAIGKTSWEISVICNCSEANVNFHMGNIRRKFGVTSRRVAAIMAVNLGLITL
# UniProt P08913, sequence (whole entry, looked up): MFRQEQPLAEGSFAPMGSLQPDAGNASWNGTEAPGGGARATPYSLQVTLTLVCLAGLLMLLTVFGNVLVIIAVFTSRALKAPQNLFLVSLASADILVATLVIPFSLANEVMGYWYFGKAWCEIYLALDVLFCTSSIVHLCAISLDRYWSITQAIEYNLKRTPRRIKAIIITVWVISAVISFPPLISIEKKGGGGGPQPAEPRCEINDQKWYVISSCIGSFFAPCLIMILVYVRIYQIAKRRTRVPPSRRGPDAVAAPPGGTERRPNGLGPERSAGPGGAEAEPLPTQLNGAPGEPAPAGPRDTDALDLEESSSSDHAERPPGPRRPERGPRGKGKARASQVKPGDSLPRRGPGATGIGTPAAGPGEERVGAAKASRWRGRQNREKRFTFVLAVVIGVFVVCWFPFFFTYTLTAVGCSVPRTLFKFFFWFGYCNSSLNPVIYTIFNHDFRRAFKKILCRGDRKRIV
# UniProt P42574, sequence (whole entry, looked up): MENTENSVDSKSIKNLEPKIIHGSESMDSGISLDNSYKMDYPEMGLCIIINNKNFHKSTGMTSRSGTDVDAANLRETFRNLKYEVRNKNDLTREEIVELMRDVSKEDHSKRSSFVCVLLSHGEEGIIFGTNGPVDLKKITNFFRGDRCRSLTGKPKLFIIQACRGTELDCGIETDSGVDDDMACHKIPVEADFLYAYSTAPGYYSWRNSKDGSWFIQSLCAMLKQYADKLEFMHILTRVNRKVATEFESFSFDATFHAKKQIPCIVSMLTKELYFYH
Substance,target,assay,system,conditions,scale,quantity,value
RYAHPTGMYY,"Serine/threonine-protein kinase pim-1 (PIM1, Homo sapiens, UniProt P11309)","substrate, coupled enzyme",peptide,"pH 7.4, room temperature, together with: 1 mM ATP, 20 mM MgCl2",,kcat/Km,1200 M⁻¹ s⁻¹
O=C(O)[C@H]1NC[C@@H]2C(O)=NO[C@@H]21,"Excitatory amino acid transporter 3 (Slc1a1, Rattus norvegicus, UniProt P51907)",inhibitor,,"10 µM, forward transport mode, together with: glutamate from MNI-caged glutamate photolysis",,peak transient transport current,inhibited
Oc1c(Cl)cc(-c2ccc(Cl)c(Cl)c2)cc1Cl,Aequorin-1 C152S/C159S/C187S,"aequorin bioluminescence, inhibitor",,"2 h, together with: coelenterazine",,detection limit,19 µM
CC1(C)Oc2cc([C@]34CC5CC(C[C@@](CN=[N+]=[N-])(C5)C3)C4)cc(O)c2[C@@H]2C[C@H](O)CC[C@H]21,CNR2,radioligand binding Bmax reduction,HEK293 membranes,"10-fold Ki, together with: [3H]CP-55,940",relative to: untreated,covalent labeling,60%
C=C(C)[C@@H]1CCC(C)=C[C@H]1c1c(O)cc(CCCCC)cc1O,"Fatty acid-binding protein, liver (FABP1, Homo sapiens, UniProt P07148)","binding, DAUDA displacement",,concentration not given,relative to: no competitor,remaining fluorescence,46 ± 6.1%
C=C1C[C@H](C)C[C@@H]2CC=C[C@@H](C/C=C\C(=O)O[C@H]([C@@H](O)/C=C/[C@@H]3CC(C)=CCO3)C[C@@H]3O[C@H]3[C@@H](O)C1)O2,"microtubules (bovine, glutaraldehyde-fixed)",competitor,,"25 µM, together with: [3H]paclitaxel 2.5 µM",,[3H]paclitaxel bound per tubulin,0.5 ± 0.018
CC(C)(NC(=O)c1nn(Cc2ccc(F)cc2)c2ccccc12)C1CCCN(CC(N)=O)C1 (stereo not drawn),CNR2,"calcium mobilization, agonist",CHO-K1 expressing Gαq16,,"relative to: CP55,940 maximum",Emax,13 ± 2%
Nc1ncnc2c1ncn2[C@@H]1O[C@H](COP(=O)(O)OP(=O)(O)OP(=O)(O)O)[C@@H](O)[C@H]1O,"matB (Rhodopseudomonas palustris, UniProt Q6ND88, C106A/K488A/Q457C/R286C)",nucleotide binding,,"0.5 µM protein, pH 7.0, 20 °C, 10 mM MgCl2",relative to: saturating ligand over no ligand,fluorescence ratio,3.9 ± 0.2
NCCc1cc(O)c(O)cc1O,"Lysine-specific demethylase 4E (KDM4E, Homo sapiens, UniProt B2RXH2)","inhibitor, FDH-coupled",,,relative to: 20 µM over 2.5 µM ferrous ammonium sulfate,IC50 ratio,3.1
O=C1OC2(c3ccccc31)c1cc(Br)c(O)c(Br)c1Oc1c2cc(Br)c(O)c1Br,"Dual specificity protein phosphatase 5 (Homo sapiens, UniProt Q16690)","enzyme inactivation, irreversible inhibitor",,"1 mM DTT, together with: p-nitrophenyl phosphate",,kinact/KI,1 M⁻¹ s⁻¹
COc1cccc(Oc2ccc(C(=O)N[C@H](CN3CCN(c4cccc(O)c4)[C@@H](C)C3)C(C)C)cc2)c1,OPRM1,antagonist,CHO,together with: DAMGO,,Ke,33 ± 14 nM
CCCCCc1cc(O)c(C/C=C(\C)CCC=C(C)C)c(O)c1,"Sodium channel protein type 9 subunit alpha (SCN9A, Homo sapiens, UniProt Q15858)","slow inactivation, automated patch clamp",,,relative to: vehicle,lowest effective concentration,7 µM
C[C@H]1CC[C@@H](NC(=O)c2cc3cc(-c4cccs4)cnc3n(Cc3ccc(F)cc3)c2=O)CC1,CNR2,"[3H]CP-55,940 displacement",,,relative to: cis over trans isomer,affinity ratio,68 fold
anthraquinone-neomycin,poly(dA)•2poly(dT) triplex,"DNA binding, isothermal titration calorimetry",,"concentration not given, pH 6.8, KCl 150 mM",,heat capacity change,-231 ± 6 cal/(mol·K)
COc1cccc2c1C(=O)c1c(O)c3c(c(O)c1C2=O)C[C@@](O)(C(C)=O)C[C@@H]3O[C@H]1C[C@H](N)[C@H](O)[C@H](C)O1,"Organic cation/carnitine transporter 2 (SLC22A5, Homo sapiens, UniProt O76082)","transporter uptake, inhibitor",,1 mM,,inhibition,56%
CC[C@H](C)[C@@H]([C@@H](CC(=O)N1CCC[C@H]1[C@H](OC)[C@@H](C)C(=O)N[C@@H](Cc1ccccc1)c1nccs1)OC)N(C)C(=O)[C@@H](NC(=O)[C@H](C(C)C)N(C)C)C(C)C,"Tubulin alpha-1B chain/TUBB2B (Bos taurus, UniProt P81947+Q6B856)","[3H]DZA binding, inhibitor",bovine,3 µM,,maximal inhibition,50 to 60%
CC(C)(NC(=O)c1nn(Cc2ccc(F)cc2)c2ccccc12)c1cccc(NC(N)=O)c1,CNR2,"calcium mobilization, agonist",CHO-K1 expressing Gαq16,,"relative to: CP55,940 maximum",Emax,34 ± 2%
CC[C@H]1O[C@]2(C)[C@H](OC(C)=O)[C@@]1(C)O[C@@H](/C=C/C=C/C=C/c1oc(=O)cc(OC)c1C)[C@@H]2O,"atpD, in F1Fo complex (Escherichia coli, UniProt P0ABB4)","ATP hydrolysis, single-molecule FRET",liposome-reconstituted F1Fo-ATPase,"20 µM, together with: 1 mM ATP",,mean dwell time,42 ms
O=C(Cc1ccc(F)cc1)NC1CCOC1=O (stereo not drawn),"Transcriptional activator protein LasR (lasR, Pseudomonas aeruginosa, UniProt P25084)","reporter gene, agonist",Escherichia coli JLD271/pJN105L/pSC11,100 µM,relative to: OdDHL 100 µM,activation,12%
"Ac-DDEPIYAELADIT-NH2 (N-acetyl, C-amide)",Csk (native),extrapolated from GST-Csk value,peptide,,,kcat/KM,95000 M⁻¹ s⁻¹
O=P(O)(O)OC[C@@H](O)[C@@H](O)CO,"Orotidine 5'-phosphate decarboxylase (Saccharomyces cerevisiae S288c, UniProt P03962, D37G)","activated decarboxylation of FO, activator",,"pH 7.0, 25 °C, upper limit, ionic strength 0.15",,(kcat/Km)/Kd,0.0089 ± 0.0003 M⁻² s⁻¹
Oc1ccc(-c2cc(Br)c(-c3ccc(O)cc3F)[se]2)c(F)c1,ESR1,antagonist,HEK293T,"highest tested concentration, together with: estradiol 10 nM",relative to: estradiol alone,efficacy,87 ± 6%
CC(C)C[C@H](NC(=O)[C@H](CO)NC(=O)[C@H](CC(C)C)NC(=O)[C@@H]1CCCN1C(=O)Cc1ccc2ccc3cccc4ccc1c2c34)C(=O)N[C@@H](CCCNC(=N)N)C(=O)N[C@@H](CO)C(=O)N[C@@H](CCCCN)C(=O)O,"Matrix metalloproteinase-9 (MMP9, Homo sapiens, UniProt P14780)","substrate, HPLC",,"500 µM, 72 h, pH 7.5, 37 °C",,hydrolysis product,75%
"Ac-QDEVD-pNA (N-acetyl, C-pNA; pNA = O=[N+]([O-])c1ccc(N*)cc1)","Caspase-3 (CASP3, Homo sapiens, UniProt P42574)","substrate, colorimetric p-nitroanilide release",,"pH 7.5, room temperature",,kcat,0.95 ± 0.05 s⁻¹
CN(C)C(=N)N=C(N)N,"Solute carrier family 22 member 2 (SLC22A2, Homo sapiens, UniProt O15244)",,,,,unstirred water layer bias,~75 µM
NFWELSKYLHMA,HIV-1 neutralising antibody 4E10,"phage binding, M13 phage ELISA",peptide,concentration not given,lower = stronger binding,binding titer,1.6e+07 M13/mL
CC(C)[C@@H](CN1CCN(c2cccc(O)c2)[C@@H](C)C1)NC(=O)c1ccc(Oc2ccccc2O)cc1,OPRM1,antagonist,CHO,together with: DAMGO,,Ke,125 ± 10 nM
COc1cccc2c1cc([N+](=O)[O-])c1c(C(=O)O)cc3c(c12)OCO3,"Phospholipase A2-beta (PLA2-BETA, Arabidopsis thaliana, UniProt Q8GZB4)","enzyme activity, inhibitor, radiolabelled PC hydrolysis, refers to: released fatty acid",,"20 µM, 40 min preincubation, pH 8.0, 40 °C, together with: 1-palmitoyl-2-[14C]palmitoyl-PC",relative to: untreated,remaining activity,38 ± 1.8%
Oc1ccc(-c2c(Cl)c(Cl)cc(Cl)c2Cl)c(Cl)c1,Aequorin-1 C152S/C159S/C187S,"aequorin bioluminescence, inhibitor",,"2 h, together with: coelenterazine",,detection limit,1.23 µM
KSQLIDKIAAGA,Kelch domain-containing protein 2,native mass spectrometry,"peptide, 200 mM ammonium acetate","20 µM Kelch domain-containing protein 2, pH 7",relative to: total Kelch domain-containing protein 2 signal,fraction of protein bound,0.5%
O=c1[nH]c(/C=C/c2cccc(O)c2O)c([N+](=O)[O-])c(=O)[nH]1,"Riboflavin synthase (ribC, Escherichia coli, UniProt P0AFU8)","enzyme activity, substrate","Escherichia coli, recombinant riboflavin synthase",pH 7.0,,Ks,2.6 ± 0.3 µM
COc1ccc2c3c1O[C@H]1C[C@@H](O)C=C[C@@]31CCN(C)C2,"Liver carboxylesterase 1 (CES1, Homo sapiens, UniProt P23141)",irreversible inhibitor,,"5× IC50 or 200 µM, 1 h, preincubation then inhibitor removal, together with: o-nitrophenyl acetate substrate",,remaining activity,0%
Cc1cccc(Oc2ccc(C(=O)N[C@H](CN3CCN(c4cccc(O)c4)[C@@H](C)C3)C(C)C)cc2)c1,OPRM1,antagonist,CHO,together with: DAMGO,,Ke,13 ± 4 nM
SHPQFEKGGGSGGG,Kelch domain-containing protein 2,native mass spectrometry,"peptide, 200 mM ammonium acetate","20 µM Kelch domain-containing protein 2, pH 7",relative to: total Kelch domain-containing protein 2 signal,fraction of protein bound,3.7%
Ac-VVIA (N-acetyl),"Amyloid-beta precursor protein, Aβ42 (APP, Homo sapiens, UniProt P05067, D672Y/Y681F)",intrinsic tyrosine fluorescence,"peptide, sodium phosphate buffer","concentration not given, pH 7.4, 22 °C, APP 5 µM",,fluorescence increase,48 ± 3%
Cc1cc(-c2ccc(-c3cc(C)c(O)c(C)c3)[se]2)cc(C)c1O,ESR1,antagonist,HEK293T,"highest tested concentration, together with: estradiol 10 nM",relative to: estradiol alone,efficacy,148 ± 2%
NWFNLTQTLMPR,HIV-1 neutralising antibody 4E10,"phage binding, M13 phage ELISA",peptide,concentration not given,lower = stronger binding,binding titer,6.5e+07 M13/mL
Cc1cc(-c2cc(-c3ccc(O)c(C)c3)c(-c3ccc(O)c(C)c3)[se]2)ccc1O,ESR1,antagonist,HEK293T,"highest tested concentration, together with: estradiol 10 nM",relative to: estradiol alone,efficacy,104 ± 29%
COc1c(O[C@@H]2O[C@H](C(=O)O)[C@@H](O)[C@H](O)[C@H]2O)cc(O)c2c(=O)cc(-c3ccccc3)oc12,"beta-glucuronidase, rat",substrate,duodenal and jejunal perfusate,,relative to: perfusate over microbial extract,Km ratio,> 2 fold
CC1N=C(c2ccccc2F)c2cc(Nc3ccccc3C#N)ccc2NC1=O (stereo not drawn),"Alpha-2A adrenergic receptor (ADRA2A, Homo sapiens, UniProt P08913)","ligand displacement, radioligand",,10 µM,,inhibition,38%
Cc1cc(-c2cc(Br)c(-c3cc(C)c(O)c(C)c3)[se]2)cc(C)c1O,ESR2,antagonist,HEK293T,"highest tested concentration, 24 h, together with: estradiol 10 nM",relative to: estradiol alone,efficacy,18 ± 13%
SGSRP[pS]TP (phospho-Ser; pS = N[C@@H](COP(=O)(O)O)C(=O)O),"CTD nuclear envelope phosphatase 1 (CTDNEP1, Homo sapiens, UniProt O95476)","substrate, MESG-coupled phosphate release",,25 °C,,kcat,0.024 ± 0.005 s⁻¹
Cc1cc(-c2ccc(-c3ccc(O)c(C)c3)[se]2)ccc1O,ESR2,antagonist,HEK293T,"highest tested concentration, 24 h, together with: estradiol 10 nM",relative to: estradiol alone,efficacy,98 ± 14%
CCOC(=O)OC(=O)OCC,"ADH1 (Saccharomyces cerevisiae, UniProt P00330, H49Q)","enzyme activity, inactivator",,"90 µM, pH 8.0, 30 °C, turnover number",,remaining activity,54 s⁻¹
MQPASEGTGIIAGGA,Kelch domain-containing protein 2,native mass spectrometry,"peptide, 200 mM ammonium acetate","20 µM Kelch domain-containing protein 2, pH 7",relative to: total Kelch domain-containing protein 2 signal,fraction of protein bound,0.6%
CC(C)(NC(=O)c1nn(Cc2ccc(F)cc2)c2ccccc12)C1CCCN(C(N)=O)C1 (stereo not drawn),CNR2,"calcium mobilization, agonist",CHO-K1 expressing Gαq16,,"relative to: CP55,940 maximum",Emax,37 ± 3%
CC1=NN(c2ccccc2)C(=S)/C1=C/Nc1c(Br)cc(Br)cc1Br,"srtA (Staphylococcus aureus, UniProt Q2FV99)","enzyme activity, inhibitor",,concentration not given,,potency improvement,~15 fold
Oc1ccc(-c2cc(-c3ccc(O)cc3)c(-c3ccc(O)cc3)[se]2)cc1,ESR1,antagonist,HEK293T,"highest tested concentration, together with: estradiol 10 nM",relative to: estradiol alone,efficacy,-7 ± 2%

# Repeated from above:
Substance,target,assay,system,conditions,scale,quantity,value
CN(C)C(=N)N=C(N)N,"Solute carrier family 22 member 2 (SLC22A2, Homo sapiens, UniProt O15244)",,,,,unstirred water layer bias,~75 µM
NFWELSKYLHMA,HIV-1 neutralising antibody 4E10,"phage binding, M13 phage ELISA",peptide,concentration not given,lower = stronger binding,binding titer,1.6e+07 M13/mL
CC(C)[C@@H](CN1CCN(c2cccc(O)c2)[C@@H](C)C1)NC(=O)c1ccc(Oc2ccccc2O)cc1,OPRM1,antagonist,CHO,together with: DAMGO,,Ke,125 ± 10 nM
COc1cccc2c1cc([N+](=O)[O-])c1c(C(=O)O)cc3c(c12)OCO3,"Phospholipase A2-beta (PLA2-BETA, Arabidopsis thaliana, UniProt Q8GZB4)","enzyme activity, inhibitor, radiolabelled PC hydrolysis, refers to: released fatty acid",,"20 µM, 40 min preincubation, pH 8.0, 40 °C, together with: 1-palmitoyl-2-[14C]palmitoyl-PC",relative to: untreated,remaining activity,38 ± 1.8%
Oc1ccc(-c2c(Cl)c(Cl)cc(Cl)c2Cl)c(Cl)c1,Aequorin-1 C152S/C159S/C187S,"aequorin bioluminescence, inhibitor",,"2 h, together with: coelenterazine",,detection limit,1.23 µM
KSQLIDKIAAGA,Kelch domain-containing protein 2,native mass spectrometry,"peptide, 200 mM ammonium acetate","20 µM Kelch domain-containing protein 2, pH 7",relative to: total Kelch domain-containing protein 2 signal,fraction of protein bound,0.5%
O=c1[nH]c(/C=C/c2cccc(O)c2O)c([N+](=O)[O-])c(=O)[nH]1,"Riboflavin synthase (ribC, Escherichia coli, UniProt P0AFU8)","enzyme activity, substrate","Escherichia coli, recombinant riboflavin synthase",pH 7.0,,Ks,2.6 ± 0.3 µM
